Results collected from several papers.
Protocols differ between the studies behind these lines.
Target: Cyclin-dependent kinase 11A (CDK11A, Homo sapiens, UniProt Q9UQ88)

The remaining binding of `CNC(=O)C1CCN(c2cc(C)c(F)cc2NC(=O)c2ccc(-c3cc(O)ccc3C)c(C)c2)CC1` is reported as 88% (binding, competition with immobilised ligand; 1 µM).
`C=CC(=O)N1CCc2ccc(-n3c(=O)ccc4cnc5ccc(-c6cnn(C)c6)cc5c43)cc21` has a remaining binding of 100% (KINOMEscan; 1 µM; reference: DMSO control).
`Cc1ccc(-c2c(/C=C(\C#N)C(=O)NC(C)C)n(CCCO)c3ncnc(N)c23)cc1` gave a remaining binding of 87% (cell-free assay, competition with immobilised ligand; 1 µM).
The remaining binding of `Cc1cnc2nc1Nc1cccc(c1)COC/C=C/COCc1cc(ccc1OCCN1CCOCC1)N2` is reported as 99% (binding; 0.1 µM).
With `CCN1CCN(Cc2ccc(NC(=O)c3ccc(C)c(NC(=O)c4cncc(-c5cccs5)c4)c3)cc2C(F)(F)F)CC1` the remaining binding was 36% (binding, competition with immobilised ligand; 1 µM).
`COc1c(Cl)cccc1Nc1c(-c2ccncc2C#C[C@@]2(C)CCCN2C(=O)/C=C/CN(C)C)[nH]c2c1C(=O)NCC2` gave a remaining binding of 97% (binding, competition with immobilised ligand; 3 µM).
`COc1cc(Nc2nccc(-c3cnn4nc(OC)ccc34)n2)cc(C(F)(F)F)c1` gave a remaining binding of 81% (binding, competition with immobilised ligand; 1 µM).
The remaining binding of `CC(C)=CC1OC(C)(C)C2C=C3C(=O)C(Cl)=CC(O)C3C3C(O)C4OC4C(=O)C132` (centres unmarked) is reported as 93% (cell-free assay, competition with immobilised ligand; 10 µM).
With `CCN1CCN(Cc2ccc(C(=O)Nc3ccc(C)c(NCc4cnc5[nH]ccc5c4OC)c3)cc2C(F)(F)F)CC1` the remaining binding was 78% (binding, competition with immobilised ligand; 1 µM).
`CNC1C[S+]2CC[S+]3CC[S+](C1)[Ru-4]321([N]=C=S)[n]2c3ccc(OC)cc3c3c4c(c5cc(F)c[n+]1c5c32)C(=O)NC4=O` (centres unmarked) has a remaining binding of 96% (KinomeScan; 0.1 µM; reference: untreated).
The remaining binding of `Nc1ncc2c(n1)-c1c([nH]c3ccc(C4=CCOCC4)cc13)CCC2` is reported as 100% (binding, competition with immobilised ligand; 1 µM).

For quick reference, copied from above:
`COc1cc(Nc2nccc(-c3cnn4nc(OC)ccc34)n2)cc(C(F)(F)F)c1` gave a remaining binding of 81% (binding, competition with immobilised ligand; 1 µM).
